Published values pooled from the literature.
Numbered parts are unrelated; each lists some results of a single study. Positions count from the first letter of the parent shown.

Set 1
Target: Prothrombin, mature alpha-thrombin (F2, Homo sapiens, UniProt P00734)
Method: aptamer microarray, sandwich
Form: DNA with 2'F-ANA
Medium: in vitro
Concentration: 200 nM
Notes: whole 15-mer aptamer, many near background
Added: Cy3 exosite-II aptamer, 400 nM
Direction: higher = stronger binding
Sequence: GGTTGGTGTGGTTGG
| Modification | mean fluorescence intensity |
| --- | --- |
| 2'F-ANA at 2 3 4 6 8 12 13 | 605 a.u. |
| 2'F-ANA at 1 4 8 9 10 11 13 14 | 46 a.u. |
| 2'F-ANA at 4 5 6 7 8 10 11 15 | 46.6 a.u. |
| 2'F-ANA at 1 2 4 10 11 12 | 74 a.u. |
| 2'F-ANA at 2 5 6 7 8 9 12 | 176 a.u. |
| 2'F-ANA at 3 5 6 7 8 15 | 131 a.u. |
| 2'F-ANA at 3 6 8 11 13 14 15 | 512 a.u. |
| 2'F-ANA at 1 2 3 4 6 11 | 123 a.u. |
| 2'F-ANA at 3 7 8 11 12 13 15 | 1280 a.u. |
| 2'F-ANA at 1 4 5 6 7 10 11 13 15 | 47.3 a.u. |
| 2'F-ANA at 1 7 9 11 15 | 149 a.u. |
| 2'F-ANA at 1 2 4 5 6 9 10 13 14 15 | 45.3 a.u. |
| 2'F-ANA at 2 3 4 6 8 9 10 12 13 14 | 158 a.u. |
| 2'F-ANA at 3 5 7 8 10 11 12 15 | 62.8 a.u. |
| 2'F-ANA at 2 4 10 11 12 14 15 | 71.7 a.u. |
| 2'F-ANA at 1 3 5 6 7 10 14 15 | 45.9 a.u. |
| 2'F-ANA at 3 4 6 11 12 13 | 621 a.u. |
| 2'F-ANA at 3 5 6 7 8 9 10 12 14 15 | 50.1 a.u. |

Set 2
Target: CCNA2, cyclin fold, Cln2 fusion (human)
Method: yeast growth competition, sequencing
Medium: yeast
Notes: strong parent motif
Baseline: not given
Direction: higher = stronger binding
Starting sequence: PKN2 docking peptide (human); VSAVQKLDFSDTM
| Variant | normalised enrichment score |
| --- | --- |
| S10I | 1.01 |
| S10G | 2.24 |
| S2M | 1.92 |
| T12K | 2.23 |
| D8W | 1.68 |
| V4S | 0.735 |
| V1L | 1.68 |
| D8Q | 1.1 |
| L7S | -0.38 |
| K6N | 0.331 |
| V4F | 1.09 |
| K6I | -0.199 |
| S2G | 1.98 |
| S2C | 1.57 |
| S2I | 1.01 |

Set 3
Target: RING finger protein unkempt homolog, zinc fingers 1-6, GST-SBP tag (UNK, Homo sapiens, UniProt Q9C0B0, residues 30-357)
Method: RNA Bind-n-Seq
Form: RNA
Medium: in vitro
Concentration: not given
Notes: RNA with constant flanks, human and mouse sites, ends assumed
Baseline: input RNA pool
Direction: higher = stronger binding
Shared flanks, not repeated: GGGAGUUCUACAGUCCGACGAUC … CAACAGAGGAUUGAGCAUCA
Construct (chain): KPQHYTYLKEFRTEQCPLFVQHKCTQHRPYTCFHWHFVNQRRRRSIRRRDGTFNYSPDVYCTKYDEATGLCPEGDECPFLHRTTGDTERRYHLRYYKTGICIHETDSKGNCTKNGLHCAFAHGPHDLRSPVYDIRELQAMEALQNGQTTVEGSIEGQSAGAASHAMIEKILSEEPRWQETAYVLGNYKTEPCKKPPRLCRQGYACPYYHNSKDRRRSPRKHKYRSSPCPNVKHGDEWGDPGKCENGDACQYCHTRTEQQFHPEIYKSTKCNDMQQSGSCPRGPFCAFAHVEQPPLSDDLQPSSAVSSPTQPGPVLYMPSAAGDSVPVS
| Sequence | bound/input enrichment |
| --- | --- |
| ACCUUGGCCGUGGGACUCAUCAACAUGGCAGAGGUGAUGCAGCAUCCUAAUGAAGGCGCACUGGUGCUUGGCCUACACAGCAACGUGAAGGAUGUCUCUGUGCCUGUGGCAGAAAUAAAG | 0.173 ratio |
| GGUGGGACAGAAAAGACAUUGCAGUAUGAAGGAAGGCUUUGGUUUGCUCAAAGUGCCAGGUGUAGGGAUGAACCUCUGACGGGCUUUCUGCCCAAGAGAUGAGAUGAGAGCCUCCUCACC | 0.345 ratio |
| UGUGGAAGCUCCCAUGACACGCUCCAGGAGCUCACAGCUCACAUGAUGGUCACUGGCCACUUUAUCAAGGUCACAAACUCGGCCAUGAAGAAGGGGAAGCCCAUCAUGGAGACACCGGUC | 0.0454 ratio |
| AAUAUAUUCUUAAAAAUAUGCUUGUUGAUGCUGUCUAAGGAACCAAUGUAUUCAGUAUACCACCCUGAAGUUGUGAUUUAAAAUACUUUAUGUUUUGUGAAAUGAAAAUAAGCAUUUGGG | 0.136 ratio |
| AAGUCAGCAGCACAAGCCAGACGCCGGCUGAUGAGUGGAAAAGUAAAAGUGUGGGGAAAUGUAGUUACAGUUGAAUGGGCUGACCCUGUGGAAGAACCAGAUCCAGAAGUCAUGGCUAAG | 0.667 ratio |
| CGCGUGCGUGCGUGUGUGUGCGCGCGCUAGUGUGUGGACAAGGAGGUGGGGGCAGCUGAGUUAGAGUCCCAACUCUUGGACUCCAUUUGCUAUUCUCUUCUUUCUCCCCCACACCUAUCU | 0.212 ratio |
| ACAAAUUCUAAGUCGGAGGAAGACAAGCAGCUAGCCAAUUCUUUAGAGAGCGUAGGGCCAAUAGAUUACAUUCUCCCAAGCUGUGGGAUUAUUGUGUCAGCACCUCGAUUAGGCAGUCGG | 0.813 ratio |
| UACAGCUUGCCUUUUUAAUGUUAGUCACAAUGUUUUUGUGGUUUGAAGUUUAGUUUAAUGUUAGUGCAGUGACAGGAAAUACACAUUAUGCUGAUGUUGAUGACAGAAUUUAUUUGGUUG | 1.52 ratio |
| UCUCUUCCUAUGCCAGUACCAUACUGUCUUAAUUACUGUAGCCCUAGAGUAAGUUUUGAAUUUAGGAUGUGUUAGUUCUCUAGCUUUGUUCUACAUCAAGAUAAUUUUACCUGUUCUGGG | 24.2 ratio |
| AACGUUGACGUGUUAUAGAUAAGCCUUGUCAUUCUGUAUCAAAAAUCUGUUGUCGUUUUCUAGUAACUUCAAAUUCCAUUACUCCAAAUGGCAUGGUUUUCCGGUUUGUAACCAUAACUA | 0.63 ratio |
| GAUCAGAAUGGAAUGACCCCUUUAAUGUGGGCAGCUUAUAGAACACAUAGUGUGGAUCCAACUAGAUUGCUUUUAACAUUCAAUGUUUCAGUUAACCUUGGUGACAAGUAUCACAAAAAC | 0.317 ratio |

Further values, each from its own experiment
| Molecule | target | test | system | setting | how to read | measurement | result |
| --- | --- | --- | --- | --- | --- | --- | --- |
| PhoQ, residues 284 288 289 292 302 303 NLGVHL | PhoP, residues 12 14 15 18 19 LFHKL (Escherichia coli, UniProt P23836) | Sort-seq, item: YFP reporter | E. coli | PhoQ-PhoP variant library, added: 10 µM Mg2+ | baseline: high Mg2+ state, higher = stronger signaling | fold induction | 2.4 |

For quick reference, copied from above (set 1):
| Modification | mean fluorescence intensity |
| --- | --- |
| 2'F-ANA at 1 2 4 5 6 9 10 13 14 15 | 45.3 a.u. |
| 2'F-ANA at 4 5 6 7 8 10 11 15 | 46.6 a.u. |
| 2'F-ANA at 3 5 6 7 8 15 | 131 a.u. |
| 2'F-ANA at 2 4 10 11 12 14 15 | 71.7 a.u. |
| 2'F-ANA at 2 5 6 7 8 9 12 | 176 a.u. |
| 2'F-ANA at 1 7 9 11 15 | 149 a.u. |
